Experimental data gathered from unrelated publications.
Lines come from different studies, so protocols differ.
4'-phosphopantetheinyl transferase PptT: 4'-phosphopantetheinyl transferase PptT (Mycobacterium tuberculosis, UniProt O33336)
UniProt O33336, sequence (whole entry, looked up): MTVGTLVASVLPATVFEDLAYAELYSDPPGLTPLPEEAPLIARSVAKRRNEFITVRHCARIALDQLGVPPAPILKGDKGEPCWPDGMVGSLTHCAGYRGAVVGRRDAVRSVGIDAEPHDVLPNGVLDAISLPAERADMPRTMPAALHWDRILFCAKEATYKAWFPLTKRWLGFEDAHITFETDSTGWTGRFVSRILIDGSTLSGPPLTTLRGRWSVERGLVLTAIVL
UniProt Q9BUB5, sequence (whole entry, looked up): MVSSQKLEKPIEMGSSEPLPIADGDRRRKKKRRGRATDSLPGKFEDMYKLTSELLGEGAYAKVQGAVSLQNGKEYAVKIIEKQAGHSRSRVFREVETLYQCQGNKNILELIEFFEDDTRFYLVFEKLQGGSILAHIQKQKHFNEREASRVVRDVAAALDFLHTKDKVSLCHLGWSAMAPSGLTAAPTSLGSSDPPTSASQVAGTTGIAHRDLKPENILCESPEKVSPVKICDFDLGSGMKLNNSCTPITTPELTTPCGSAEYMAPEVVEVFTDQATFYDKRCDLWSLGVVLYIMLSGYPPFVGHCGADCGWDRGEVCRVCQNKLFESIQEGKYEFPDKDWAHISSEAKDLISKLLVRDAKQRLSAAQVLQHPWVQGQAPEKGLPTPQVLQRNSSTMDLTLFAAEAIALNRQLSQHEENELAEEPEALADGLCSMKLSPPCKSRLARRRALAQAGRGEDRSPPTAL
UniProt Q86Y07, sequence (whole entry, looked up): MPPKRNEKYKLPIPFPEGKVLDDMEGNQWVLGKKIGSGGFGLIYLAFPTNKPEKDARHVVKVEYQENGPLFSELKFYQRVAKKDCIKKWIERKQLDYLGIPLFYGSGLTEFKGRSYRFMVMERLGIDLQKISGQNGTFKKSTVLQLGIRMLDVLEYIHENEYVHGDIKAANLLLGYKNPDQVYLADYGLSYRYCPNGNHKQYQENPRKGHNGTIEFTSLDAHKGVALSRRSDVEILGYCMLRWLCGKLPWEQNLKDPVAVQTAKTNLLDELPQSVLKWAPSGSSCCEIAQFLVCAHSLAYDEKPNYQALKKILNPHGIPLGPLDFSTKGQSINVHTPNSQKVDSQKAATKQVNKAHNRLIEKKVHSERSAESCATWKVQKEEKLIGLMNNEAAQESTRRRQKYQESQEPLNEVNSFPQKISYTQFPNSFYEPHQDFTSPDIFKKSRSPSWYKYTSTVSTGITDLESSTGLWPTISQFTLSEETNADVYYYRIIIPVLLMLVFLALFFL
UniProt Q16659, sequence (whole entry, looked up): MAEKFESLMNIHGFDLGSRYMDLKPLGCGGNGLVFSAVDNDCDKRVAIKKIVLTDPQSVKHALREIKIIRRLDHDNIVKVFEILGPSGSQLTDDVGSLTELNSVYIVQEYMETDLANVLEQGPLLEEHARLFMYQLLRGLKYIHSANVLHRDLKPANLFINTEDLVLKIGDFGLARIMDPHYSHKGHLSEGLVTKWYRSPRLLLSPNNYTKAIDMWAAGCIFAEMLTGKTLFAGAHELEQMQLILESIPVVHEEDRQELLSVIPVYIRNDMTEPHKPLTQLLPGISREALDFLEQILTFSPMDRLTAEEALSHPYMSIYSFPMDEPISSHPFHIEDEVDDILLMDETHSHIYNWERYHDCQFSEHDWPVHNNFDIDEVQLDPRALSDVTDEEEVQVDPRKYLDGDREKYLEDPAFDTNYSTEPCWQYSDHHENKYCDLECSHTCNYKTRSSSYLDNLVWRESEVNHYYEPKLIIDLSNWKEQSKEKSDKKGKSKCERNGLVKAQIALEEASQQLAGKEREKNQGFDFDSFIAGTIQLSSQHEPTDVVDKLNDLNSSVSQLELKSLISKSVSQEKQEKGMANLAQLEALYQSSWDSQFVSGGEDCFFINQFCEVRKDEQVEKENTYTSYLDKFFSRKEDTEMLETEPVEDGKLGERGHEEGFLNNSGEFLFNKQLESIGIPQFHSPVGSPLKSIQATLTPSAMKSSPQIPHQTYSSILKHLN
UniProt P42336, sequence (whole entry, unmodified, looked up): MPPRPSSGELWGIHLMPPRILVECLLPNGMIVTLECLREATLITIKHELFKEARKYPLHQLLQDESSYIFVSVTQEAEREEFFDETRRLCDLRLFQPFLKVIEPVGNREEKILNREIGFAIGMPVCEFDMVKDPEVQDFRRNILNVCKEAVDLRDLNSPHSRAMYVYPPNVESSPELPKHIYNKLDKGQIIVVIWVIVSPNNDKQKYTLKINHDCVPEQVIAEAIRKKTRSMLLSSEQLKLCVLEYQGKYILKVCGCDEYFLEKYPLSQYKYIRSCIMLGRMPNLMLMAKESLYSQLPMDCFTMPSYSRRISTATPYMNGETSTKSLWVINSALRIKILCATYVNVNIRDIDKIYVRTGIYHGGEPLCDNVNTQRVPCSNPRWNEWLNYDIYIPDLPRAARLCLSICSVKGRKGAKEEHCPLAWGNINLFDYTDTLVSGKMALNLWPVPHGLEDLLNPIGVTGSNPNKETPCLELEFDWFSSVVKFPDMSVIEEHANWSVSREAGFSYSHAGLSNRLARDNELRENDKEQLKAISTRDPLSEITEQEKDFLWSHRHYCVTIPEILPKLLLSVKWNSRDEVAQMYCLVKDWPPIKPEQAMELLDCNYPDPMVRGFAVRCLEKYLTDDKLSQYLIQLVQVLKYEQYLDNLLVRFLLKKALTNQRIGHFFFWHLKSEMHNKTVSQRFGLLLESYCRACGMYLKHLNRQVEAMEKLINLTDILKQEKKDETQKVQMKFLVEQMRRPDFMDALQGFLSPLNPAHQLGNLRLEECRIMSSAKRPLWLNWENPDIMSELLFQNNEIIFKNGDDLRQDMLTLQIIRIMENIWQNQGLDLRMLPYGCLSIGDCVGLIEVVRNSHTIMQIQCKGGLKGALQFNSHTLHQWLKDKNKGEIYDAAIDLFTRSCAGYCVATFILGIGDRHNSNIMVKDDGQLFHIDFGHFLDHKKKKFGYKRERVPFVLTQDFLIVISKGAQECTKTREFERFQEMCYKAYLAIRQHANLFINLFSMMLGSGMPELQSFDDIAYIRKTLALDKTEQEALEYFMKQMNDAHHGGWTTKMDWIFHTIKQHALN

C[C@@H](O)[C@@H]1NC(=O)[C@H](Cc2ccccc2)NC(=O)[C@@H](Cc2ccccc2)NC(=O)[C@H](Cc2ccccc2)NC(=O)[C@@H](CCCN)NC(=O)[C@H](CCCCN)NC(=O)[C@@H](CCCCN)NC1=O has an IC90 of > 16 µg/mL (Balamuthia mandrillaris; parasite growth, ATP luminescence).
With COc1cccc(C=Nc2ccc(SCc3cc(=O)c(O)co3)cc2)c1 the IC50 was 21.3 µM (ABTS scavenging, absorbance).
Cc1sc2c(c1C)C(c1ccc(Cl)cc1)=N[C@H](CC(=O)OC(C)(C)C)c1nnc(C)n1-2 gave a viability of 168% (OCI-Ly1; cell growth or viability, ATP luminescence; 1 µM, 5 days).
The EC50 of O=C(NNc1ccc(Cl)c(Cl)c1)c1nnc(C23CC4CC(CC(C4)C2)C3)o1 is reported as > 50 µg/mL (Pyricularia grisea; microbial growth).
COC1=CC2=[N+](C)CCc3c[nH]c(c32)C1=O gave an IC50 of 10.2 µM (Babesia duncani; parasite growth, SYBR Green; 60 h, blood stage).
O=c1cc(CSc2ccc(N=Cc3ccc(C(F)(F)F)cc3)cc2)occ1O gave an IC50 of 20.4 µM (ABTS scavenging, absorbance).
The IC50 of C[N+]1=C2C=C(NCCc3ccc(O)cc3)C(=O)c3[nH]cc(c32)CC1 is reported as 0.166 µM (Babesia duncani; parasite growth, SYBR Green; 60 h, blood stage).
Cc1ccc(NNC(=O)c2nnc(CC34CC5CC(CC(C5)C3)C4)o2)cc1 gave an EC50 of > 50 µg/mL (Pyricularia grisea; microbial growth).
With Cc1nn(C)cc1-c1nc2c(N3CCN(Cc4ccc(Cl)cc4)CC3)c(Cl)cnc2[nH]1 the remaining binding was 76% (Phosphatidylinositol 4,5-bisphosphate 3-kinase catalytic subunit alpha isoform (PIK3CA, Homo sapiens, UniProt P42336, Q546K); binding, competition with immobilised ligand; 1 µM).
The viability of CN(C)c1ccc(C(=O)NCCCCCCC(=O)NO)cc1 is reported as 37.3% (HBL1; cell growth or viability, ATP luminescence; 0.5 µM, 5 days).
With CC(C)[C@H]1NC(=O)[C@H](CCCNC(=N)N)NC(=O)CNC(=O)[C@@H](Cc2c[nH]c3ccccc23)NC(=O)[C@H](CCCCN)NC(=O)[C@@H](CCCN)NC1=O the IC90 was > 16 µg/mL (Balamuthia mandrillaris; parasite growth, ATP luminescence).
O=C(NNc1cc(F)ccc1F)c1nnc(CC23CC4CC(CC(C4)C2)C3)o1 has an inhibition of 100% (Pyricularia grisea; microbial growth; 50 µg/mL).
CCOC(=O)c1nnn(-c2cccc(NC(=O)Nc3ccc(Cl)c(Cl)c3)c2)c1C has an MIC of > 64 µg/mL (Acinetobacter baumannii; microbial growth, broth dilution; BAA1605).
The IC50 of CC(C)[C@@H]1NC(=O)[C@@H](CCCCN)NC(=O)[C@H](CCCN)NC(=O)[C@@H](CC(=O)O)NC(=O)[C@H](C)NC(=O)[C@H](Cc2c[nH]c3ccccc23)NC(=O)[C@@H](Cc2ccccc2)NC1=O is reported as > 16 µg/mL (Balamuthia mandrillaris; parasite growth, ATP luminescence).
With O=C(NNc1cc(F)ccc1F)c1nnc(C23CC4CC(CC(C4)C2)C3)o1 the EC50 was > 12.5 µg/mL (Pyricularia grisea; microbial growth).
The IC90 of CC(C)[C@@H]1NC(=O)[C@@H](CCCN)NC(=O)[C@H]([C@@H](C)O)NC(=O)[C@@H](CCCN)NC(=O)[C@H](Cc2ccccc2)NC(=O)[C@@H](C)NC(=O)[C@@H](C(C)C)NC(=O)[C@@H](C)NC(=O)[C@H](Cc2c[nH]c3ccccc23)NC(=O)[C@@H](Cc2c[nH]c3ccccc23)NC1=O is reported as > 16 µg/mL (Balamuthia mandrillaris; parasite growth, ATP luminescence).
Nc1cc(I)c(I)cc1N gave an IC50 of 15 µM (ME-180; cell growth or viability; 72 h).
For O=C1c2[nH]cc3c2C(=NCC3)c2c(-c3ccc(O)cc3)c[nH]c21, the IC50 was 0.146 µM (Babesia duncani; parasite growth, SYBR Green; 60 h, blood stage).
The remaining binding of [2H]c1c([2H])c([C@]2([2H])CCCN2C(=O)C(C)(C)Oc2ccc3cn[nH]c3c2)c([2H])c([2H])c1C([2H])([2H])[2H] is reported as 100% (MAP kinase-interacting serine/threonine-protein kinase 1 (MKNK1, Homo sapiens, UniProt Q9BUB5); binding, competition with immobilised ligand; 1 µM).
COC(=O)c1cc(-c2cccc(NC(=O)Nc3ccc(Cl)c(C(F)(F)F)c3)c2)on1 gave an MIC of > 64 µg/mL (Escherichia coli; microbial growth, broth dilution; ATCC25922).
The viability of COc1ccc(Nc2nn3c(-c4ccccc4)ccnc3c2C(=O)Nc2ccc(Cl)cc2)cc1 is reported as 60% (Caco-2; cell growth or viability, MTT; 6.25 µg/mL, 48 h, serum-free).
For CC(C)[C@H]1NC(=O)[C@H](Cc2ccccc2)NC(=O)CNC(=O)[C@@H](Cc2c[nH]c3ccccc23)NC(=O)[C@H](CCCCN)NC(=O)[C@@H](CCCN)NC1=O, the IC90 was > 16 µg/mL (Balamuthia mandrillaris; parasite growth, ATP luminescence).
For O=C(NNc1ccc(F)c(F)c1)c1nnc(C23CC4CC(CC(C4)C2)C3)o1, the inhibition was 51.4% (Pyricularia grisea; microbial growth; 50 µg/mL).
NCCCC[C@H]1NC(=O)[C@H](Cc2ccccc2)NC(=O)[C@@H](Cc2ccccc2)NC(=O)[C@H](Cc2ccccc2)NC(=O)[C@@H](CCCN)NC(=O)[C@H](CCCN)NC1=O gave an IC50 of 12.6 µM (Balamuthia mandrillaris; parasite growth, ATP luminescence).
The IC50 of O=c1cc(CSc2ccc(N=Cc3ccccc3Br)cc2)occ1O is reported as 0.01 µM (ABTS scavenging, absorbance).
CC(C)[C@@H]1NC(=O)[C@@H](CC(N)=O)NC(=O)[C@H](CCCN)NC(=O)[C@@H](CC(N)=O)NC(=O)[C@H](CCCCN)NC(=O)[C@H](C(C)C)NC(=O)[C@@H](C(C)C)NC(=O)[C@@H](C(C)C)NC(=O)[C@@H](C(C)C)NC1=O has an IC90 of > 16 µg/mL (Balamuthia mandrillaris; parasite growth, ATP luminescence).
The MIC of COC(=O)c1cc(-c2cccc(NC(=S)Nc3ccc(F)cc3F)c2)on1 is reported as > 64 µg/mL (Acinetobacter baumannii; microbial growth, broth dilution; BAA1605).
O=C(NNc1ccccc1)c1nnc(CC23CC4CC(CC(C4)C2)C3)o1 has an EC50 of > 50 µg/mL (Pyricularia grisea; microbial growth).
COc1ccc(C=Nc2ccc(SCc3cc(=O)c(O)co3)cc2)cc1 has an IC50 of 24.3 µM (ABTS scavenging, absorbance).
N#Cc1ccc(Cn2c(=S)[nH]c3ccc(Cl)cc3c2=O)cn1 has an IC50 of 0.54 µM (4'-phosphopantetheinyl transferase PptT; enzyme activity, inhibitor, FP).
For CC[C@H](C)[C@H](NC(=O)[C@H](Cc1ccccc1)NC(=O)[C@H](CCC(=O)O)NC(=O)[C@H](CCCNC(=N)N)NC(=O)[C@H](C)NC(=O)[C@H](C)NC(=O)[C@H](CCC(N)=O)NC(=O)[C@H](CCC(=O)O)NC(=O)[C@H](CCC(=O)O)NC(=O)[C@H](CC(C)C)NC(=O)[C@H](Cc1ccc(O)cc1)NC(=O)[C@H](CO)NC(=O)[C@H](CO)NC(=O)[C@@H](NC(=O)[C@H](CC(=O)O)NC(=O)[C@H](CO)NC(=O)[C@@H](NC(=O)[C@H](Cc1ccccc1)NC(=O)[C@@H](NC(=O)CNC(=O)[C@H](CCC(=O)O)NC(=O)[C@H](C)NC(=O)CCc1c[nH]cn1)[C@@H](C)O)[C@@H](C)O)C(C)C)C(=O)N[C@@H](C)C(=O)N[C@@H](Cc1c[nH]c2ccccc12)C(=O)N[C@@H](CC(C)C)C(=O)N[C@H](C(=O)N[C@@H](CCCNC(=N)N)C(=O)NCC(=O)N[C@@H](CCCNC(=N)N)C(=O)N[C@@H](CCCCNC(=O)COCCOCCNC(=O)COCCOCCNC(=O)CC[C@H](NC(=O)CCCCCCCCCCCCCCCCC(=O)O)C(=O)O)C(=O)NCC(=O)NCC(=O)N[C@@H](CO)C(=O)N[C@@H](CCCCNc1c(NCCCCCN(O)C(=O)CCC(=O)NCCCCCN(O)C(=O)CCC(=O)NCCCCCN(O)C(C)=O)c(=O)c1=O)C(=O)O)C(C)C, the C0 was 359 nM (rat, plasma; intravenous, 20 nmol/kg, single dose).
O=c1c2cc(Cl)ccc2[nH]c(=S)n1Cc1cncnc1 gave an IC50 of 0.62 µM (4'-phosphopantetheinyl transferase PptT; enzyme activity, inhibitor, FP).
For C[C@H]1NC(=O)[C@H](Cc2ccccc2)NC(=O)[C@@H](Cc2ccccc2)NC(=O)[C@H](Cc2ccccc2)NC(=O)[C@@H](CCCN)NC(=O)[C@H](CCCN)NC1=O, the IC90 was 12.2 µM (Balamuthia mandrillaris; parasite growth, ATP luminescence).
For COc1ncccc1-c1cnn2ccc(N3CCN(C(=O)OC(C)C)CC3)nc12, the remaining binding was 100% (Mitogen-activated protein kinase 6 (MAPK6, Homo sapiens, UniProt Q16659); binding, competition with immobilised ligand; 1 µM).
The EC50 of CO/C=C(/C(=O)OC)c1ccccc1Oc1cc(Oc2ccccc2C#N)ncn1 is reported as > 50 µg/mL (Pyricularia grisea; microbial growth).
The IC50 of CCc1ccccc1C=Nc1ccc(SCc2cc(=O)c(O)co2)cc1 is reported as 35.6 µM (ABTS scavenging, absorbance).
The inhibition of N.N.[Cl][Pt][Cl] is reported as 100% (SU-DHL-5; cell growth or viability, ATP luminescence; 10 µM, 72 h).
With COc1ccc(Nc2nn3c(-c4ccccc4)ccnc3c2C(=O)Nc2ccccc2)cc1 the viability was 84.2% (Caco-2; cell growth or viability, MTT; 6.25 µg/mL, 48 h, serum-free).
Nc1ncc(-c2nc(N3CCOCC3)nc(N3CCOCC3)n2)c(C(F)F)n1 gave a remaining binding of 64% (Serine/threonine-protein kinase VRK2 (VRK2, Homo sapiens, UniProt Q86Y07); binding, competition with immobilised ligand; 10 µM).
O=C(NNc1ccc(Cl)c(Cl)c1)c1nnc(CC23CC4CC(CC(C4)C2)C3)o1 has an inhibition of 75.1% (Pyricularia grisea; microbial growth; 50 µg/mL).

Some of these lines once more:
Cc1sc2c(c1C)C(c1ccc(Cl)cc1)=N[C@H](CC(=O)OC(C)(C)C)c1nnc(C)n1-2 gave a viability of 168% (OCI-Ly1; cell growth or viability, ATP luminescence; 1 µM, 5 days).
With O=C(NNc1cc(F)ccc1F)c1nnc(C23CC4CC(CC(C4)C2)C3)o1 the EC50 was > 12.5 µg/mL (Pyricularia grisea; microbial growth).
The IC50 of O=c1cc(CSc2ccc(N=Cc3ccccc3Br)cc2)occ1O is reported as 0.01 µM (ABTS scavenging, absorbance).
